Assay results gathered from unrelated publications.
Protocols differ between the studies behind these lines. Numbers after ± are the reported error.
U2AF2: U2AF2 148-342 (Homo sapiens, UniProt P26368)
UniProt P26368, sequence (whole entry, looked up): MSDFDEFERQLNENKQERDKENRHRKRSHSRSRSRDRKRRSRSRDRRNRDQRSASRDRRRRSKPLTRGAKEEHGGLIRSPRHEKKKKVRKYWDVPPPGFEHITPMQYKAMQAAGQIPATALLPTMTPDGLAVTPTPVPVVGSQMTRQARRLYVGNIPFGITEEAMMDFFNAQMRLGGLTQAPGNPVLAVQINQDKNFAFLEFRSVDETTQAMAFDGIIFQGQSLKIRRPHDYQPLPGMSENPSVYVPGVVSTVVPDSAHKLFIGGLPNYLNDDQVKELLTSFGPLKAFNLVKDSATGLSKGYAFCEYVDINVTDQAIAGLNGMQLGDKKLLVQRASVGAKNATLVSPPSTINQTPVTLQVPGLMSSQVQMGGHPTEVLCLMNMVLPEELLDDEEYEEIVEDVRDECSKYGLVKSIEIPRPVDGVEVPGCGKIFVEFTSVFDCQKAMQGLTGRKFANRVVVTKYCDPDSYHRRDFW
B1: BTK SH3-SH2 215-378 P327A (Mus musculus, UniProt P35991); sequence looked up; chain ELKKVVALYDYMPMNANDLQLRKGEEYFILEESNLPWWRARDKNGQEGYIPSNYITEAEDSIEMYEWYSKHMTRSQAEQLLKQEGKEGGFIVRDSSKAGKYTVSVFAKSTGEAQGVIRHYVVCSTPQSQYYLAEKHLFSTIPELINYHQHNSAGLISRLKYPVS
B2: human PABP4; sequence looked up; chain MNAAASSYPMASLYVGDLHSDVTEAMLYEKFSPAGPVLSIRVCRDMITRRSLGYAYVNFQQPADAERALDTMNFDVIKGKPIRIMWSQRDPSLRKSGVGNVFIKNLDKSIDNKALYDTFSAFGNILSCKVVCDENGSKGYAFVHFETQEAADKAIEKMNGMLLNDRKVFVGRFKSRKEREAELGAKAKEFTNVYIKNFGEEVDDESLKELFSQFGKTLSVKVMRDPNGKSKGFGFVSYEKHEDANKAVEEMNGKEISGKIIFVGRAQKKVERQAELKRKFEQLKQERISRYQGVNLYIKNLDDTIDDEKLRKEFSPFGSITSAKVMLEDGRSKGFGFVCFSSPEEATKAVTEMNGRIVGSKPLYVALAQRKEERKAHLTNQYMQRVAGMRALPANAILNQFQPAAGGYFVPAVPQAQGRPPYYTPNQLAQMRPNPRWQQGGRPQGFQGMPSAIRQSGPRPTLRHLAPTGSECPDRLAMDFGGAGAAQQGLTDSCQSGGVPTAVQNLAPRAAVAAAAPRAVAPYKYASSVRSPHPAIQPLQAPQPAVHVQGQEPLTASMLAAAPPQEQKQMLGERLFPLIQTMHSNLAGKITGMLLEIDNSELLHMLESPESLRSKVDEAVAVLQAHHAKKEAAQKVGAVAAATS
B3: SPOP E78K (Homo sapiens, UniProt O43791); sequence looked up; chain MSRVPSPPPPAEMSSGPVAESWCYTQIKVVKFSYMWTINNFSFCREEMGEVIKSSTFSSGANDKLKWCLRVNPKGLDKESKDYLSLYLLLVSCPKSEVRAKFKFSILNAKGEETKAMESQRAYRFVQGKDWGFKKFIRRDFLLDEANGLLPDDKLTLFCEVSVVQDSVNISGQNTMNMVKVPECRLADELGGLWENSRFTDCCLCVAGQEFQAHKAILAARSPVFSAMFEHEMEESKKNRVEINDVEPEVFKEMMCFIYTGKAPNLDKMADDLLAAADKYALERLKVMCEDALCSNLSVENAAEILILADLHSADQLKTQAVDFINYHASDVLETSGWKSMVVSHPHLVAEAYRSLASAQCPFLGPPRKRLKQS
B4: CRYAB (Homo sapiens, UniProt P02511); sequence looked up; chain MDIAIHHPWIRRPFFPFHSPSRLFDQFFGEHLLESDLFPTSTSLSPFYLRPPSFLRAPSWFDTGLSEMRLEKDRFSVNLDVKHFSPEELKVKVLGDVIEVHGKHEERQDEHGFISREFHRKYRIPADVDPLTITSSLSSDGVLTVNGPRKQVSGPERTIPITREEKPAVTAAPKK
B5: spnA dimerization element 1877-1944 (Saccharopolyspora spinosa, UniProt Q9ALM6); sequence looked up; chain ALRESSAGDMGRRVEAKFWGAVEHEDVESLARVLGIVDDGAAVDSLRSALPVLAGWQRTRTTESIMDQ
B6: S100A5 (Homo sapiens, UniProt P33763); sequence looked up; chain METPLEKALTTMVTTFHKYSGREGSKLTLSRKELKELIKKELCLGEMKESSIDDLMKSLDKNSDQEIDFKEYSVFLTMLCMAYNDFFLEDNK
B7: OGT monomeric W198E/I201D (UniProt O15294-3); sequence looked up; chain MASSVGNVADSTGLAELAHREYQAGDFEAAERHCMQLWRQEPDNTGVLLLLSSIHFQCRRLDRSAHFSTLAIKQNPLLAEAYSNLGNVYKERGQLQEAIEHYRHALRLKPDFIDGYINLAAALVAAGDMEGAVQAYVSALQYNPDLYCVRSDLGNLLKALGRLEEAKACYLKAIETQPNFAVAWSNLGCVFNAQGEIELADHHFEKAVTLDPNFLDAYINLGNVLKEARIFDRAVAAYLRALSLSPNHAVVHGNLACVYYEQGLIDLAIDTYRRAIELQPHFPDAYCNLANALKEKGSVAEAEDCYNTALRLCPTHADSLNNLANIKREQGNIEEAVRLYRKALEVFPEFAAAHSNLASVLQQQGKLQEALMHYKEAIRISPTFADAYSNMGNTLKEMQDVQGALQCYTRAIQINPAFADAHSNLASIHKDSGNIPEAIASYRTALKLKPDFPDAYCNLAHCLQIVCDWTDYDERMKKLVSIVADQLEKNRLPSVHPHHSMLYPLSHGFRKAIAERHGNLCLDKINVLHKPPYEHPKDLKLSDGRLRVGYVSSDFGNHPTSHLMQSIPGMHNPDKFEVFCYALSPDDGTNFRVKVMAEANHFIDLSQIPCNGKAADRIHQDGIHILVNMNGYTKGARNELFALRPAPIQAMWLGYPGTSGALFMDYIITDQETSPAEVAEQYSEKLAYMPHTFFIGDHANMFPHLKKKAVIDFKSNGHIYDNRIVLNGIDLKAFLDSLPDVKIVKMKCPDGGDNADSSNTALNMPVIPMNTIAEAVIEMINRGQIQITINGFSISNGLATTQINNKAATGEEVPRTIIVTTRSQYGLPEDAIVYCNFNQLYKIDPSTLQMWANILKRVPNSVLWLLRFPAVGEPNIQQYAQNMGLPQNRIIFSPVAPKEEHVRRGQLADVCLDTPLCNGHTTGMDVLWAGTPMVTMPGETLASRVAASQLTCLGCLELIAKNRQEYEDIAVKLGTDLEYLKKVRGKVWKQRISSPLFNTKQYTMELERLYLQMWEHYAAGNKPDHMIKPVEVTESA
B8: TOC33 truncated, lacking membrane anchor (Arabidopsis thaliana); chain MGSLVREWVGFQQFPAATQEKLIEFFGKLKQKDMNSMTVLVLGKGGVGKSSTVNSLIGEQVVRVSPFQAEGLRPVMVSRTMGGFTINIIDTPGLVEAGYVNHQALELIKGFLVNRTIDVLLYVDRLDVYRVDELDKQVVIAITQTFGKEIWCKTLLVLTHAQFSPPDELSYETFSSKRSDSLLKTIRAGSKMRKQEFEDSAIAVVYAENSGRCSKNDKDEKALPNGEAWIPNLVKAITDVATNQRKAIHVD
UniProt Q9BQ39, sequence (whole entry, looked up): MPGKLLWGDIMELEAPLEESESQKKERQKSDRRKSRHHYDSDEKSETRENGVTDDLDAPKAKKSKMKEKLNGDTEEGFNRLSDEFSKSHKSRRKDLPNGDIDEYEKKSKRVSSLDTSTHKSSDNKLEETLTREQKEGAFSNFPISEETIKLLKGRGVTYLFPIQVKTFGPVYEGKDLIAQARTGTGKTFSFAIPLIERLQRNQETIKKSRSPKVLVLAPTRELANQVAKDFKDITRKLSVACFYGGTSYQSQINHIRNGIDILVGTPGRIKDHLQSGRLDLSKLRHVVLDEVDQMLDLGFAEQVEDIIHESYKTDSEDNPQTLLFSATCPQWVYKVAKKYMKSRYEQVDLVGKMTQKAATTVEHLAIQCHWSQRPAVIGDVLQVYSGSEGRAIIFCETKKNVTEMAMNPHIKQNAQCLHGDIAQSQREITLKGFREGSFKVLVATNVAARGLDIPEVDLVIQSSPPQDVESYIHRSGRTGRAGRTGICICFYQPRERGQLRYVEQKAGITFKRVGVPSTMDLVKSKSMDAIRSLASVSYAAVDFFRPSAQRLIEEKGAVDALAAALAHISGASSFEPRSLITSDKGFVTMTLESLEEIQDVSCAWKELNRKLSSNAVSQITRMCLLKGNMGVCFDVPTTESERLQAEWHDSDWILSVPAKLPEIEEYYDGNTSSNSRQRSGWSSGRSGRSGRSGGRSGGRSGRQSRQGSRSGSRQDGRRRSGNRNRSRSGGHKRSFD

Molecule	tested on	test	test system	conditions	how to read	endpoint	result
B1 (BTK SH3-SH2 215-378 P327A)	itself	SEC		room temperature		dimer half-life	40.8 min
B2 (human PABP4)	CYB5R4 knockout human cells	PP4 interaction, 3xFLAG-PP4C IP-MS		concentration not given	relative to: CYB5R4 KO over parental	log2 fold change	0.86
UAGGUUUGG (ssRNA)	U2AF2	sequencing of bound RNA	RNA	motif only		Kd	4.84 µM
B3 (SPOP E78K)	itself	negative-stain TEM				binding	binds
RQIVDAQAVCTRCKESADFWCFECEQLLCAKCFEAHQWFLKHEARPLAE (PML 120-168 (Homo sapiens, UniProt P29590-1); sequence looked up)	itself	NMR titration				Kd	167 ± 32 µM
KNRKAKAKPVTRGAGAGGRQRGQNKERPPPVPNPDYEPIRKGQRDLYSGLNQRRI (CD3E cytoplasmic domain (Homo sapiens, UniProt P07766))	itself	AUC equilibrium sedimentation				Kd	8300 µM
B4 (CRYAB)	itself	SEC		apo, reducing conditions		binding	binds
B5	itself	AUC				Kd	19.9 µM
B6 (S100A5)	itself	AUC		added: calcium		Kd	70 ± 15 µM
B7 (OGT monomeric W198E/I201D)	itself	TR-FRET		added: CoraFluor-labelled OGT 1 nM		Kd	> 1 µM
B8	itself	fluorescence kinetics		22 °C, added: mantGDP		koff	0.0032 s⁻¹
UUUAGUUUU (ssRNA)	U2AF2	sequencing of bound RNA	RNA	motif only		Kd	11.2 µM
human G6PD	CYB5R4 knockout human cells	PP4 interaction, 3xFLAG-PP4C IP-MS		concentration not given	relative to: CYB5R4 KO over parental	log2 fold change	0.27
DDX50 (Homo sapiens, UniProt Q9BQ39)	itself	MST		added: glucose 350 µM	relative to: no glucose, higher = greater reduction in dimerization	dimerization change	> 4 fold

For quick reference, copied from above:
Molecule	tested on	test	test system	conditions	how to read	endpoint	result
B3 (SPOP E78K)	itself	negative-stain TEM				binding	binds
RQIVDAQAVCTRCKESADFWCFECEQLLCAKCFEAHQWFLKHEARPLAE (PML 120-168 (Homo sapiens, UniProt P29590-1); sequence looked up)	itself	NMR titration				Kd	167 ± 32 µM
